{"data": "Results pooled from the literature", "note": "Protocols differ between the studies behind these lines. Numbers after ± are the reported error."}
{"SMILES": "Cc1c(-c2ccc(N3CCc4cccc(C(=O)Nc5nc6ccccc6s5)c4C3)nc2C(=O)O)cnn1CC12CC3(C)CC(C)(C1)CC(OCCNCC[C@H](O)CO)(C3)C2", "system": "beagle dog, anaesthetised", "conditions": "intravenous infusion, 0.1 mg/kg/min, 105 min", "how to read": "relative to: baseline", "measurement": "mean arterial pressure change", "value": "-5 mmHg"}
{"SMILES": "CC(=O)N(C)C1CCN(c2cc(F)cc(NC(=O)c3cc4c(F)ccc(C)c4[nH]3)c2)C1 (stereo not drawn)", "system": "CD1 mouse", "conditions": "intravenous, 1 mg/kg", "measurement": "terminal half-life", "value": "42 min"}
{"SMILES": "Cc1ccc(Sc2ccccc2N2CCNCC2)c(C)c1", "system": "healthy adult men", "conditions": "oral, 2.5 mg single dose, treatment-emergent adverse events", "measurement": "pyrexia incidence", "value": "0%"}
{"SMILES": "Cc1nc(-c2ccc(OCC(C)C)c(C#N)c2)sc1C(=O)O", "system": "human, plasma", "conditions": "oral, 20 mg, with: verinurad 10 mg", "how to read": "relative to: test over reference", "measurement": "geometric mean ratio Cmax", "value": 93.7}
{"SMILES": "COc1cccc(OC)c1-c1cc(C(=O)NC2(C(=O)O)C3CC4CC(C3)CC2C4)nn1-c1ccc(C(=O)N(C)CCCN(C)CCCN(C)C(=O)CN2CCN(CC(=O)[O-])CCN(CC(=O)[O-])CCN(CC(=O)[O-])CC2)cc1C(C)C.[177Lu+3] (stereo not drawn)", "system": "mouse, HT-29 xenograft, brain", "conditions": "24 h post injection", "measurement": "tissue uptake", "value": "0.055 %ID/g"}
{"SMILES": "CCC(C)n1ncn(-c2ccc(N3CCN(c4ccc(OCC5COC(Cn6cncn6)(c6ccc(Cl)cc6Cl)O5)cc4)CC3)cc2)c1=O (stereo not drawn)", "system": "healthy human volunteers", "conditions": "oral, 200 mg, event Vomiting, continued dosing", "measurement": "adverse events", "value": "0%"}
{"SMILES": "Cn1cc([C@H]2C[C@H]3CSC(N)=N[C@@]3(c3ccc(F)cc3F)CO2)cn1", "system": "male 129/SVE mouse, brain", "conditions": "subcutaneous, 3 mg/kg, 9 h", "measurement": "brain concentration", "value": "62 nM"}
{"SMILES": "O=S(=O)(Nc1ccc(C2CCOC2)cc1)c1cccc(Cl)c1O (stereo not drawn)", "test": "colloidal aggregate formation, dynamic light scattering", "system": "50 mM potassium phosphate buffer", "conditions": "200 µM, pH 7.0, 1% DMSO", "how to read": "higher = more aggregation", "measurement": "DLS scattered light intensity", "value": "267000 counts/s"}
{"SMILES": "N#Cc1ccc2c(c1)[C@H]1CCCN(C(=O)c3ccc4[nH]cnc4c3)[C@H]1C2", "system": "human males", "conditions": "360 mg, day 7", "measurement": "total testosterone level", "value": "16.2 nmol/L"}
{"SMILES": "Cc1noc(CC2(NS(=O)(=O)c3cccc(Cl)c3O)CC2)n1", "test": "colloidal aggregate formation, dynamic light scattering", "system": "50 mM potassium phosphate buffer", "conditions": "200 µM, pH 7.0, 1% DMSO", "how to read": "higher = more aggregation", "measurement": "DLS scattered light intensity", "value": "604000 counts/s"}
{"SMILES": "CC(C)(C(=O)N1CCOc2c(C#N)cncc2C1)C(F)F", "test": "measured: cutaneous vasculitis", "system": "human, both sexes", "conditions": "oral, 15 mg twice daily, 14 days, multiple ascending dose", "measurement": "subjects with TEAE", "value": "0%"}
{"SMILES": "CCc1cc(C(=O)NC)c2nccc(N3CCc4c(cc(Cn5ccnc5)cc4-c4cn(C)nc4C(F)(F)F)C3=O)c2c1", "system": "Sprague Dawley rat", "conditions": "oral, 50 mg/kg once daily, 7 days", "how to read": "relative to: vehicle", "measurement": "change in gastrocnemius weight", "value": "-2.72%"}
{"SMILES": "CC(C)NCC(O)COc1cccc2ccccc12 (stereo not drawn)", "system": "male Hartley guinea pig, anaesthetized", "conditions": "intravenous infusion, 1 mg/kg, 10 min infusion, post-infusion", "measurement": "QTc interval", "value": "355 ± 0.3 ms"}
{"SMILES": "Cc1c(C(=O)O)ccc2c3n(nc12)[C@@H]1[C@H](C3)N(CC2CC2)[C@@]2(C(=O)Nc3cc(Cl)ccc32)[C@H]1c1cccc(Cl)c1F", "system": "female BALB/c nude mice, SJSA-1 xenograft, plasma", "conditions": "oral, 2 mg/kg once daily, individual animals", "measurement": "AUC(0-t)", "value": "28.3 µM·h"}
{"SMILES": "CC(C)C(=O)O[C@H]1[C@H](C)OC(=O)[C@@H]1Cc1ccccc1", "test": "soil adsorption", "system": "clay loam soil", "conditions": "pH 6.8, organic carbon 0.5 %", "measurement": "Freundlich coefficient KF", "value": "2.3 mL/g"}
{"SMILES": "COc1cc(-c2cnc3cc(OCCN4CCOCC4)ccn23)cc2c1C(=O)N(CC(F)(F)F)CC2", "test": "LC-MS", "system": "human, plasma", "conditions": "oral, 350 mg once daily, day 8, co-dosed with methotrexate", "how to read": "arithmetic mean", "measurement": "Ctrough", "value": "70.1 ng/mL"}
{"SMILES": "COc1cc(C(=O)NC2CCN(C)CC2)c(F)cc1Nc1ncc(C(F)(F)F)c(Oc2cccc3c2C(=O)N(C)C3)n1", "system": "human patients, plasma", "conditions": "oral, 100 mg once daily repeated, geometric mean", "measurement": "dose-normalised Cmax at steady state", "value": "14.3 nmol/L per mg"}
{"SMILES": "NC(=O)N1c2ccccc2C=Cc2ccccc21", "test": "measured: initial insomnia", "system": "human male", "conditions": "oral, dose not given, CTCAE on-treatment AEs", "measurement": "adverse events incidence", "value": "0%"}
{"SMILES": "CNC(=O)c1ccc(-c2cnc3ncc(Cc4ccc5ncccc5c4)n3n2)cc1F", "test": "ultrafiltration", "system": "human moderate hepatic function, plasma", "conditions": "oral, 200 mg, 3 h post-dose, mean", "measurement": "fraction unbound", "value": 0.0322}
{"SMILES": "CC(C)NCCCC[C@@H]1NC(=O)[C@H](Cc2ccc(O)cc2)NC(=O)[C@H](Cc2ccccc2)NC(=O)CC[C@H](C(=O)N[C@@H](CCCCNC(C)C)C(=O)N[C@@H](CCCCNC(=O)[C@H](CCC(=O)O)NC(=O)[C@H](CCC(=O)O)NC(=O)[C@H](CCC(=O)O)NC(=O)CN2CCN(CC(=O)O)CCN(CC(=O)O)CCN(CC(=O)O)CC2)C(N)=O)NC(=O)CNC(=O)[C@H](Cc2ccc3ccccc3c2)NC(=O)[C@@H](CCCNC(=N)N)NC1=O [gallium-68 labelled]", "system": "mouse with JeKo-1 xenograft, lung", "conditions": "intravenous, 1 h", "measurement": "tissue uptake", "value": "0.73 %ID/g"}
{"SMILES": "COc1cc2nccc(Oc3ccc(NC(=O)c4cc5c(n(-c6ccccc6)c4=O)CCCC5=O)nc3)c2cc1OC", "system": "human, relapsed/refractory AML", "conditions": "oral, dose not given, all dose groups combined", "measurement": "patients with drug-related serious TEAEs", "value": "5%"}
{"SMILES": "CO/N=C(\\C(=O)N[C@@H]1C(=O)N2C(C(=O)[O-])=C(C[N+]3(C)CCCC3)CS[C@H]12)c1csc(N)n1", "system": "human whole blood", "conditions": "concentration not given, 8 h, 4 °C", "measurement": "deviation from nominal concentration", "value": "8%"}
{"SMILES": "Cl.[2H]C([2H])([2H])CC(=O)c1cnc(NC(=O)C2CC2)cc1Nc1cccc(-c2ncn(C([2H])([2H])[2H])n2)c1OC", "system": "human, fed, multiple dose", "conditions": "oral, 20 mg twice daily, liquid formulation, day 7, geometric mean", "measurement": "Ctrough", "value": "81.9 ng/mL"}
{"SMILES": "Cn1cc(Nc2nccc(-c3ccc4c(c3)CN(C3COC3)CC[C@H]4NC(=O)c3cn(C(C)(C)C)nn3)n2)cn1", "system": "human, whole blood", "conditions": "300 mg twice daily, day 14", "how to read": "relative to: pre-dose baseline", "measurement": "plasma cell count change", "value": "96.9%"}
{"SMILES": "CCNCCCNC/C=C\\CNCCCNCC", "test": "LC-MS/MS", "system": "cancer patients, plasma", "conditions": "intravenous infusion, 200 mg, 60 min infusion, median, cycle 1", "measurement": "volume of distribution", "value": "2.14 L/kg"}
{"SMILES": "C[C@@H]1CCO[C@H]2Cn3cc(C(=O)NCc4ccc(F)cc4F)c(=O)c(O)c3C(=O)N12", "test": "population PK, post-hoc", "system": "children, 25 to <30 kg, plasma", "conditions": "oral, 22.4 mg granules, steady state, geometric mean", "measurement": "AUC(0-24)", "value": "54400 ng·h/mL"}
{"SMILES": "O=C(COc1ccc(Cl)cc1)NC12CC(c3nnc([C@H]4C[C@@H](OC(F)(F)F)C4)o3)(C1)C2", "system": "human both sexes", "conditions": "oral, 800 mg single dose", "measurement": "participants with TEAE", "value": "66.7%"}
{"SMILES": "Cc1ccc(C(=O)N(CCCN)C(c2nc3snc(C)c3c(=O)n2Cc2ccccc2)C(C)C)cc1 (stereo not drawn)", "system": "human patients, plasma", "conditions": "intravenous, 10 mg/day, day 3 of induction course, geometric mean", "measurement": "plasma concentration at 24 h", "value": "12.3 ng/mL"}
{"SMILES": "C=CC1(C)CC(OC(=O)CSc2nc3ccccc3s2)C2(C)C(C)CCC3(CCC(=O)C32)C(C)C1O (stereo not drawn)", "test": "haemolysis", "system": "sheep erythrocytes", "conditions": "1 h, pH 7.5", "measurement": "HC50", "value": "> 128 µg/mL"}
{"SMILES": "C/C(O)=C(\\C#N)C(=O)Nc1ccc(C(F)(F)F)cc1", "system": "CD-1 mice female, whole blood", "conditions": "oral, 30 mg/kg leflunomide daily, 8 h, after dose 10", "measurement": "blood concentration", "value": "314000 ± 111000 nM"}
{"SMILES": "CCc1nc(C(N)=O)c(Nc2ccc(N3CCC(N4CCN(C)CC4)CC3)c(OC)c2)nc1NC1CCOCC1", "system": "female FVB mice, wild-type, plasma", "conditions": "oral, 10 mg/kg, single dose", "measurement": "AUC(0-t)", "value": "5350 ± 395 ng·h/mL"}
{"SMILES": "C[C@H](CCC(=O)O[C@@H]1O[C@H](C(=O)O)[C@@H](O)[C@H](O)[C@H]1O)[C@H]1CC[C@H]2[C@@H]3[C@H](O)C[C@@H]4C[C@H](O)CC[C@]4(C)[C@H]3CC[C@]12C", "system": "human, plasma", "conditions": "endogenous baseline diurnal", "measurement": "daily mean concentration", "value": "16.5 ± 2 nM"}
{"SMILES": "CCOc1c([C@H](C)n2nc(C)c3c(N)ncnc32)cc(Cl)c(F)c1[C@@H]1CNC(=O)C1", "test": "measured: QTcF change above 60 ms", "system": "previously treated B-cell malignancy", "conditions": "oral, 30 mg once daily, baseline QTcF ≤450 ms", "how to read": "relative to: baseline", "measurement": "ECG observations", "value": "0%"}
{"SMILES": "O=S(=O)(Nc1ccc(-c2ccco2)cc1F)c1cccc(Cl)c1O", "test": "colloidal aggregate formation, dynamic light scattering", "system": "50 mM potassium phosphate buffer", "conditions": "200 µM, pH 7.0, 1% DMSO", "how to read": "higher = more aggregation", "measurement": "DLS scattered light intensity", "value": "1.24e+06 counts/s"}
{"SMILES": "CCCC1CCC(c2ccc(-c3ccc(CC)cc3)cc2)CC1 (stereo not drawn)", "test": "measured: compound", "system": "human pregnant women, male fetuses, maternal serum", "conditions": "dose not given, paired maternal-cord samples, mean", "measurement": "concentration", "value": "0.45 ng/mL"}
{"SMILES": "O=[N+]([O-])c1ccccc1CCNS(=O)(=O)c1cccc(Cl)c1O", "test": "colloidal aggregate formation, dynamic light scattering", "system": "50 mM potassium phosphate buffer", "conditions": "200 µM, pH 7.0, 1% DMSO", "how to read": "higher = more aggregation", "measurement": "DLS scattered light intensity", "value": "2.8e+06 counts/s"}
{"SMILES": "CCO[C@H]1CCN(Cc2c(OC)cc(C)c3[nH]ccc23)[C@H](c2ccc(C(=O)O)cc2)C1", "system": "PNH patients, active haemolysis", "conditions": "oral, 50 mg, 4 weeks, treatment", "measurement": "incidence upper respiratory infection", "value": "0%"}
{"SMILES": "COC1=C(OC)[C@H](O)[C@H](C/C=C(\\C)CC/C=C(\\C)CCC=C(C)C)[C@@H](C)C1=O", "system": "Balb/c mice male, whole blood", "conditions": "oral, 50 mg/kg, 7 h", "measurement": "blood concentration", "value": "26.6 nM"}
{"SMILES": "NC1(C(=O)N[C@@H](CCO)c2ccc(Cl)cc2)CCN(c2nc[nH]c3nccc2-3)CC1", "system": "metastatic CRPC patients", "conditions": "480 mg b.i.d., any grade, treatment-related, with: enzalutamide 160 mg daily", "measurement": "incidence of Nausea", "value": "40%"}
{"note": "Some of these lines once more:"}
{"SMILES": "C/C(O)=C(\\C#N)C(=O)Nc1ccc(C(F)(F)F)cc1", "system": "CD-1 mice female, whole blood", "conditions": "oral, 30 mg/kg leflunomide daily, 8 h, after dose 10", "measurement": "blood concentration", "value": "314000 ± 111000 nM"}
{"SMILES": "CC(=O)N(C)C1CCN(c2cc(F)cc(NC(=O)c3cc4c(F)ccc(C)c4[nH]3)c2)C1 (stereo not drawn)", "system": "CD1 mouse", "conditions": "intravenous, 1 mg/kg", "measurement": "terminal half-life", "value": "42 min"}
{"SMILES": "CC(C)(C(=O)N1CCOc2c(C#N)cncc2C1)C(F)F", "test": "measured: cutaneous vasculitis", "system": "human, both sexes", "conditions": "oral, 15 mg twice daily, 14 days, multiple ascending dose", "measurement": "subjects with TEAE", "value": "0%"}
{"SMILES": "CC(C)C(=O)O[C@H]1[C@H](C)OC(=O)[C@@H]1Cc1ccccc1", "test": "soil adsorption", "system": "clay loam soil", "conditions": "pH 6.8, organic carbon 0.5 %", "measurement": "Freundlich coefficient KF", "value": "2.3 mL/g"}
